{"data": "Assay results from different studies", "note": "Every numbered part comes from another study and shows a few of its results, in no order. Values joined by “and” are separate records of one study, mostly repeats; a detail may differ.", "chain of UniProt Q9UKT9 (whole entry, looked up)": "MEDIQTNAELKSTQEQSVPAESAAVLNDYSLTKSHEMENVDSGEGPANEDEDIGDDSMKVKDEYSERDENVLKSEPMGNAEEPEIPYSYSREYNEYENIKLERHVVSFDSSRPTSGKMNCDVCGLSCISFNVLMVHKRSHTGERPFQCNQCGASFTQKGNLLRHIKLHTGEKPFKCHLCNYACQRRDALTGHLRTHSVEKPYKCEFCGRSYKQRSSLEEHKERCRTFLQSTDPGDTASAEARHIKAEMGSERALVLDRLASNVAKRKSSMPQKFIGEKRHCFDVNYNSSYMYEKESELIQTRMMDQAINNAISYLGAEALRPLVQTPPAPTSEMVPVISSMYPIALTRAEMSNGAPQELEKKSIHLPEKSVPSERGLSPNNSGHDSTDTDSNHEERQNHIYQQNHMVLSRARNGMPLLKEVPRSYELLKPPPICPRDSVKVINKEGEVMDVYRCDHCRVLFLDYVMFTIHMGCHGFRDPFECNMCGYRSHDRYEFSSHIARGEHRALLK", "chain of UniProt P15170 (whole entry, looked up)": "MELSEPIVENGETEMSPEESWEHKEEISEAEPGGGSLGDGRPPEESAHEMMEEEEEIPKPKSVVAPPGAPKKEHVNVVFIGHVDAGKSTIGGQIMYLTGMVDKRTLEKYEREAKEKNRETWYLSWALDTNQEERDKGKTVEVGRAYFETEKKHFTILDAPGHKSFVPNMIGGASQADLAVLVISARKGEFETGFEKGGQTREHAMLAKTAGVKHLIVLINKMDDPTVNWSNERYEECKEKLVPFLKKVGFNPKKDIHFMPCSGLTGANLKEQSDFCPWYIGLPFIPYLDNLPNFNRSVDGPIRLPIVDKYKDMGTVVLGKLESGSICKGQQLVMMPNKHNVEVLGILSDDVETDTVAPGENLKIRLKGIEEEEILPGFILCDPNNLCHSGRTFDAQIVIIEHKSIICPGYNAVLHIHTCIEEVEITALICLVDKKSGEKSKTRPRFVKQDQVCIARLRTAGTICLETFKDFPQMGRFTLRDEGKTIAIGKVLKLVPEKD"}
{"data": "Block 1", "SMILES": "O=C1CC[C@H](Nc2ccc(N3CCNCC3)c(F)c2)C(=O)N1", "target": "Protein cereblon (CRBN, Homo sapiens, UniProt Q96SW2)", "effect on": "binding", "chain of UniProt Q96SW2 (whole entry, looked up)": "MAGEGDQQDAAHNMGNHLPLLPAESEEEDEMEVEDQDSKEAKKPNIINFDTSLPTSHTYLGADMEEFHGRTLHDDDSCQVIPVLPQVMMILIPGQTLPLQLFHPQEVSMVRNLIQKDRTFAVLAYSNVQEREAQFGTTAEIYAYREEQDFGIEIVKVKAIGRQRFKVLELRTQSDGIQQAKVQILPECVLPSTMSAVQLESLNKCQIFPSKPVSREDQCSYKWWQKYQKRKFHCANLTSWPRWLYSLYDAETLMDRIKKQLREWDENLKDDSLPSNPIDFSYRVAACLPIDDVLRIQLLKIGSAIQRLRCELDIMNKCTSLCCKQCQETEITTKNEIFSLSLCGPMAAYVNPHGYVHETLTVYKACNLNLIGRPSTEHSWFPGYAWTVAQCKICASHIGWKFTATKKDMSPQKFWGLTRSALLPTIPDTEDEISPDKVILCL"}
{"concentration": "10000 nM", "inhibition": "100% and 94.8%"}
{"concentration": "123.46 nM", "inhibition": "41.6% and 31.2%"}
{"concentration": "370.37 nM", "inhibition": "52.6%"}
{"data": "Block 2", "SMILES": "CCCCC[C@@H](O)CC(=O)N[C@H]1COC(=O)[C@H](CO)NC(=O)[C@H](Cc2ccccc2)NC(=O)[C@@H](Cc2c[nH]c3ccccc23)NC(=O)[C@@H](C(C)O)NC(=O)[C@H](CC(N)=O)NC(=O)[C@@H](C(C)C)NC(=O)[C@H](CC(C)C)NC(=O)[C@@H](Cc2ccc(O)cc2)N(C)C(=O)CNC(=O)[C@H](CO)NC(=O)[C@@H](CC(N)=O)NC1=O (stereo partly shown)"}
{"organism": "Staphylococcus aureus", "strain": "USA300", "together with": "ubiquinone 64 µg/mL", "MIC": "8 µg/mL"}
{"organism": "Staphylococcus aureus", "strain": "USA300", "together with": "menaquinone 0.25 µg/mL", "MIC": "16 µg/mL"}
{"organism": "Escherichia coli", "effect on": "microbial growth", "time": "16 h", "MIC": "> 64 µg/mL"}
{"organism": "Staphylococcus aureus", "strain": "USA300", "together with": "menaquinone 4 µg/mL", "MIC": "64 µg/mL"}
{"organism": "Staphylococcus aureus", "strain": "USA300", "together with": "menaquinone 0.125 µg/mL", "MIC": "16 µg/mL"}
{"organism": "Staphylococcus aureus", "strain": "USA300", "together with": "menaquinone 16 µg/mL", "MIC": "> 64 µg/mL"}
{"data": "Block 3", "SMILES": "Cn1cc(-c2cccc(CN3CCC4(CC3)COc3c4ccc4c3CN([C@@H]3CCC(=O)NC3=O)C4=O)c2)cn1", "action": "degrader", "technique": "HiBiT", "cells": "HEK293", "DNA-binding protein Ikaros": "DNA-binding protein Ikaros (Homo sapiens, UniProt Q13422)", "SALL4": "Sal-like protein 4 (SALL4, Homo sapiens, UniProt Q9UJQ4)", "CSNK1A1": "Casein kinase I isoform alpha (CSNK1A1, Homo sapiens, UniProt P48729)", "chain of UniProt Q9UJQ4 (whole entry, looked up)": "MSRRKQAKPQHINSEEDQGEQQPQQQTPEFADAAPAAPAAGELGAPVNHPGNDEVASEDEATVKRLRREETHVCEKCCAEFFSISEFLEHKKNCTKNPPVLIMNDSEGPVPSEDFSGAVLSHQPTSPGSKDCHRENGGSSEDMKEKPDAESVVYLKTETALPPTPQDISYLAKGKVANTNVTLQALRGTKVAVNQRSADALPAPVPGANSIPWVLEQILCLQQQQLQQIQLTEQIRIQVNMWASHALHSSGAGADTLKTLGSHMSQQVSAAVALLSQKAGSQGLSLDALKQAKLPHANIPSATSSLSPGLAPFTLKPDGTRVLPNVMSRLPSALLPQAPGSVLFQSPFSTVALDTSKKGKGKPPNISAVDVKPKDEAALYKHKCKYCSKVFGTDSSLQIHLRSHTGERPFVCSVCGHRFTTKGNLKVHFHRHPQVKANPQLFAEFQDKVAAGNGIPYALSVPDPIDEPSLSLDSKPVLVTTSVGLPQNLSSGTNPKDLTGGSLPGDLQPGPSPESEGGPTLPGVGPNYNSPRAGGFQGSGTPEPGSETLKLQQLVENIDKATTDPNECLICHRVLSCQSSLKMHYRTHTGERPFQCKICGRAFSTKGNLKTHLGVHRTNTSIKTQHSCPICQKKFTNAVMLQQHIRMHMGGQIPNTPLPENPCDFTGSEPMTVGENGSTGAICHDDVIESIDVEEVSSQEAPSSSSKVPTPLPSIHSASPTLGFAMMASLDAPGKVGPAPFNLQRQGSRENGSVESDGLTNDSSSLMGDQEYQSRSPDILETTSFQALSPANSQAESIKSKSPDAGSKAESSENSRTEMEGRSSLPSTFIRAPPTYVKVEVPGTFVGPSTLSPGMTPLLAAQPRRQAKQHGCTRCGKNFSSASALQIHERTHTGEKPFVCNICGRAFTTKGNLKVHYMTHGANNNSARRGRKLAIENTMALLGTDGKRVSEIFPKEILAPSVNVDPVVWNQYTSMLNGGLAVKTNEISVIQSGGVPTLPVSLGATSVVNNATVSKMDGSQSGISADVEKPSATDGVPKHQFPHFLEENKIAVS", "chain of UniProt Q13422 (whole entry, looked up)": "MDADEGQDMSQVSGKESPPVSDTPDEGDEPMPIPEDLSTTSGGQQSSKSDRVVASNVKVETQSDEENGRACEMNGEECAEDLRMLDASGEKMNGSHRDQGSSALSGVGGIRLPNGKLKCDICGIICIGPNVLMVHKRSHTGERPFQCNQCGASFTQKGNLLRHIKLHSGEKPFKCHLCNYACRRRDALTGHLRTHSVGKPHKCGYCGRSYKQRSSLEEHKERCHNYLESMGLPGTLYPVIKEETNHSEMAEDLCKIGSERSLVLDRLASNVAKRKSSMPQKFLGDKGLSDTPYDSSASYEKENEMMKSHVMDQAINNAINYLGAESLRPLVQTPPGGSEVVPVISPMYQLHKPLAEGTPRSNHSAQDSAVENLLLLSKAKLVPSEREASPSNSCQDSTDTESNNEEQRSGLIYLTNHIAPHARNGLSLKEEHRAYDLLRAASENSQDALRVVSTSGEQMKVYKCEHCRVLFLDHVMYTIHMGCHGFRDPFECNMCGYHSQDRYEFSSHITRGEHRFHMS", "chain of UniProt P48729 (whole entry, looked up)": "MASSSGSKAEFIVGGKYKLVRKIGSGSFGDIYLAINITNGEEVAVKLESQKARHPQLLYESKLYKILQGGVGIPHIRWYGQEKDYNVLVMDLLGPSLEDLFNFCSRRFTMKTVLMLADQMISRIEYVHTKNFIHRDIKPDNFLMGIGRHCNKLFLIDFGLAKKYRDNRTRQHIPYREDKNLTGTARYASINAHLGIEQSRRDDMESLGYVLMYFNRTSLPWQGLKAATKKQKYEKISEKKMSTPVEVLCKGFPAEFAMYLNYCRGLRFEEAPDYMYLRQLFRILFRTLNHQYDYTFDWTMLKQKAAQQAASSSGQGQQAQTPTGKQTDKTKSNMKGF"}
{"target": "DNA-binding protein Ikaros", "concentration": "1.524 nM", "remaining protein": "105% and 102%"}
{"target": "DNA-binding protein Ikaros", "concentration": "3333.33 nM", "remaining protein": "98% and 100%"}
{"target": "Zinc finger protein Aiolos (Homo sapiens, UniProt Q9UKT9)", "concentration": "1.524 nM", "remaining protein": "102% and 101%"}
{"target": "SALL4", "concentration": "3333.33 nM", "remaining protein": "82.6% and 73.4%"}
{"target": "CSNK1A1", "concentration": "41.15 nM", "remaining protein": "99.3% and 101%"}
{"target": "SALL4", "concentration": "1.524 nM", "remaining protein": "93.1% and 99.5%"}
{"target": "CSNK1A1", "concentration": "1111.11 nM", "remaining protein": "95.8% and 94.5%"}
{"target": "SALL4", "concentration": "10000 nM", "remaining protein": "82.9% and 78.7%"}
{"target": "GSPT1 (Homo sapiens, UniProt P15170)", "concentration": "123.5 nM", "remaining protein": "105% and 94.7%"}
{"target": "CSNK1A1", "concentration": "13.72 nM", "remaining protein": "98.1% and 93.9%"}
{"target": "DNA-binding protein Ikaros", "concentration": "41.15 nM", "remaining protein": "99.2% and 99.9%"}
{"data": "Other studies, line by line", "organism": "Arabidopsis thaliana"}
{"SMILES": "C#CCN1C(=O)C(O)(C(=O)O)Oc2cc(F)ccc21 (stereo not shown)", "system": "2-week-old plants, aboveground tissue", "conditions": "foliar spray, 200 µg/mL, 20 days, postemergence", "quantity": "fresh weight", "value": "360 mg and 364 mg and 376 mg"}
{"SMILES": "C=CCN1C(=O)C(O)(C(=O)O)Oc2cc(F)ccc21 (stereo not shown)", "system": "Col-0", "conditions": "6.25 µg/mL, seed germination, single repetition", "quantity": "hypocotyl length", "value": "2.08 cm and 2.03 cm and 2.11 cm and 2.02 cm"}
{"note": "Repeated from above (block 3):"}
{"target": "SALL4", "concentration": "1.524 nM", "remaining protein": "93.1% and 99.5%"}
{"target": "CSNK1A1", "concentration": "1111.11 nM", "remaining protein": "95.8% and 94.5%"}
{"target": "SALL4", "concentration": "10000 nM", "remaining protein": "82.9% and 78.7%"}
